Measured values gathered from unrelated publications.
Every numbered part comes from another study and shows a few of its results, in no order. Substitutions count along the parent as printed.

Block 1
Target: Histone acetyltransferase KAT6A, winged helix 2, GST fusion (KAT6A, Homo sapiens, UniProt Q92794, residues 85-181)
Technique: protein binding microarray
Molecule type: double-stranded DNA, one strand shown
Medium: in vitro
Tested at: not given
Setting: 8-mer, flanks averaged, mean of 2 arrays, mostly near background
Reference: not given
Reading: higher = stronger binding
Construct (chain): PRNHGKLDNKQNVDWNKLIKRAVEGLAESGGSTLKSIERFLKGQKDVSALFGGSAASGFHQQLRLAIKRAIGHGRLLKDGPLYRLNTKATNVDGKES
Sequence	E-score
CTCGGTGC	0.111
CACTACGC	0.0196
ACATTACA	-0.235
ACTCCTAG	-0.15
AAGCGTTC	-0.0848
GCTGACAA	0.17
GATTGACC	-0.148
ATGGCCCA	0.106
ATCCTGGG	0.0575
CGAAGAGA	0.123
AAGTCGTC	-0.179
AGACTGGG	0.0272
AAATTCCT	-0.0615
CCCATAAG	-0.00968
ACCGGACA	-0.0636
TACACTAA	-0.133
AAGGCGCC	0.0763
CCGAACCA	0.041
CCGTTCTC	-0.0952
AAAGTCTT	-0.281
AGCACAGG	0.15
CATCGAGA	-0.0101

Block 2
Target: TAR DNA-binding protein 43, full length, His tag (TARDBP, Homo sapiens, UniProt Q13148, residues 1-414)
Technique: RNA Bind-n-Seq
Molecule type: RNA
Medium: in vitro
Tested at: 20 nM
Setting: 6-mer, flanks averaged, single round
Added: 150 mM KCl
Reference: input library
Reading: higher = stronger binding
Sequence	6-mer enrichment (R)
UUAUCU	0.563
CCGCAA	0.678
GUAGUU	0.794
GUUCAA	0.621
CGAAAG	0.844
GCUGGU	1.26
AUACUG	0.645
CCCCGC	0.66
GCUCGU	0.735
UCGACG	0.842
UCCUCU	0.551
UGUACC	0.656
UAACGA	0.635
UCCCAG	0.701
GUUUGA	0.861
AACGAG	0.97

Block 3
Target: ABI1, truncated, D143A, DHFR fusion (Arabidopsis thaliana)
Technique: DHFR PCA, deep sequencing
Medium: yeast
Setting: methotrexate growth selection, single substitutions
Added: (+)-ABA 0.0091 µM
Reference: wild-type fitted maximum
Reading: higher = stronger binding
Starting sequence: PYL1, truncated, DHFR fusion (Arabidopsis thaliana); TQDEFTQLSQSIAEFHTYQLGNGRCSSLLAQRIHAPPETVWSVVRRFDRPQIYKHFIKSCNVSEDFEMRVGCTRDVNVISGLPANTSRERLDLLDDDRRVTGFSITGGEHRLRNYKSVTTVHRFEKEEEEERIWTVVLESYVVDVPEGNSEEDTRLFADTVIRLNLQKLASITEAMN; partner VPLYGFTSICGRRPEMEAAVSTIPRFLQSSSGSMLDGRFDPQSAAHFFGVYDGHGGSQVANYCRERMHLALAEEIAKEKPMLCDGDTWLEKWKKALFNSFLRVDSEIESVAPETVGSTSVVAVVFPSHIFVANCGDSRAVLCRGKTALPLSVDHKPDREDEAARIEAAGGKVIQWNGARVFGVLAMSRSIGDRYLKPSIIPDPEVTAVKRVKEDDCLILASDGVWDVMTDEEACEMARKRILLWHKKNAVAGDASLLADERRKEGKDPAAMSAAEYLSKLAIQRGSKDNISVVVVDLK
Change	relative binding score
D65S	8.5%
S104G	-0.697%
K116T	10.6%
E127S	32%
Q10W	2.44%
W41Q	-0.191%
G81Q	9.91%
T6A	46.8%
D48T	-7.29%
L94A	-2.74%
R24W	2.55%
N77F	9.18%
T17I	2.04%

Block 4
Target: UBE2Z UBC core domain (UniProt Q9H832)
Chain of UniProt Q9H832 (whole entry, looked up): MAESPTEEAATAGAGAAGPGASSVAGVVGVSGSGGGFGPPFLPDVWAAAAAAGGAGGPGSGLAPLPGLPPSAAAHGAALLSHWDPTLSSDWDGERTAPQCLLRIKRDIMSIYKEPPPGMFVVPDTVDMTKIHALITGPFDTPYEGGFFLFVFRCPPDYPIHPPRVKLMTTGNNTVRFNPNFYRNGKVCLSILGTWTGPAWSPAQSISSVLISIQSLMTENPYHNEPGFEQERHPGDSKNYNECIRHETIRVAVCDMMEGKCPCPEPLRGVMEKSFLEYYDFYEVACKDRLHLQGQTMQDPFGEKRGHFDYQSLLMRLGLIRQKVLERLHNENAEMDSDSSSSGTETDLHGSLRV
Technique: yeast two-hybrid
Medium: yeast
Setting: mostly zero background
Reference: not given
Reading: higher = stronger interaction
B1: TRIM26 RING domain (UniProt Q12899); chain PLRSLEEEVTCSICLDYLRDPVTIDCGHVFCRSCTTDVRPISGSRPVCPLCKKPFKKENIRP
B2: RNF166 RING domain (UniProt Q96A37); chain GDSGLEAQYTCPICLEVYHRPVAIGSCGHTFCGECLQPCLQVPSPLCPLCRLPFDPKKVDK
B3: MEX3B RING domain (UniProt Q6ZN04); chain SGLRRKGSRDCSVCFESEVIAALVPCGHNLFCMECANRICEKSEPECPVCHTAVTQAIRIF
B4: TRIM60 RING domain (UniProt Q495X7); chain ALVNLQEESSCPICLEYLKDPVTINCGHNFCRSCLSVSWKDLDDTFPCPVCRFCFPYKSFRR
B5: TRIM22 RING domain (UniProt Q8IYM9); chain VKVDIEKEVTCPICLELLTEPLSLDCGHSFCQACITAKIKESVIISRGESSCPVCQTRFQPGNLRP
Sequence	lacZ reporter activity
B1 (TRIM26 RING domain)	0
FVKTVEDKYKCEKCHLVLCSPKQTECGHRFCESCMAALLSSSSPKCTACQESIVKDKVF (TRAF3 RING domain (UniProt Q13114))	0
B2 (RNF166 RING domain)	0
B3 (MEX3B RING domain)	0
B4 (TRIM60 RING domain)	0
YPEEVDDDLICHICLQALLDPLDTPCGHTYCTLCLTNFLVEKDFCPMDRKPLVLQHCKK (LNX1 RING domain (UniProt Q8TBB1))	0
YCEMGSTFQLCKICAENDKDVKIEPCGHLMCTSCLTAWQESDGQGCPFCRCEIKGTEPII (CBLB RING domain (UniProt Q13191))	0
LDAASGHPLVCPLCHGQYERPCLLDCFHDFCTGCLRGRATDGRLSCPLCQHQTLVKGPSG (Rnf207 RING domain (UniProt Q3V3A7))	0
B5 (TRIM22 RING domain)	0
QVQSRTKIEECVVCSDKKAAVLFQPCGHMCACENCANLMKKCVQCRAVVERRVPFI (MIB1 RING domain (UniProt Q86YT6))	0

Block 5
Target: CCNB3, cyclin fold, Cln2 fusion (human)
Technique: yeast growth competition, sequencing
Medium: yeast
Setting: weak parent motif
Reference: not given
Reading: higher = stronger binding
Starting sequence: SAMHD1 docking peptide (human); ASKSRVQLFKDDP
Change	normalised enrichment score
ASDSRVQLFKDDP [K3D]	-0.0857
ASKSRVLLFKDDP [Q7L]	-0.0466
ASGSRVQLFKDDP [K3G]	-0.0808
ASKSRVQLFKGDP [D11G]	0.417
AGKSRVQLFKDDP [S2G]	-0.131
ASKSRVQLNKDDP [F9N]	0.0634
ASKSWVQLFKDDP [R5W]	0.502
ASKSRVQLFKLDP [D11L]	0.0271
ASKFRVQLFKDDP [S4F]	0.14
ASKSRVQLFKVDP [D11V]	0.0594
ASKSHVQLFKDDP [R5H]	-0.144
ASKSRVQRFKDDP [L8R]	-0.356
ASKSRGQLFKDDP [V6G]	-0.061
ASKSLVQLFKDDP [R5L]	-0.305
ASKSKVQLFKDDP [R5K]	0.0168
ANKSRVQLFKDDP [S2N]	-0.173
ASKSRVQLRKDDP [F9R]	0.0521

Block 6
Target: Sal-like protein 4, full length isoform A (SALL4, Homo sapiens, UniProt Q9UJQ4, residues 1-1053)
Chain of UniProt Q9UJQ4 (whole entry, looked up): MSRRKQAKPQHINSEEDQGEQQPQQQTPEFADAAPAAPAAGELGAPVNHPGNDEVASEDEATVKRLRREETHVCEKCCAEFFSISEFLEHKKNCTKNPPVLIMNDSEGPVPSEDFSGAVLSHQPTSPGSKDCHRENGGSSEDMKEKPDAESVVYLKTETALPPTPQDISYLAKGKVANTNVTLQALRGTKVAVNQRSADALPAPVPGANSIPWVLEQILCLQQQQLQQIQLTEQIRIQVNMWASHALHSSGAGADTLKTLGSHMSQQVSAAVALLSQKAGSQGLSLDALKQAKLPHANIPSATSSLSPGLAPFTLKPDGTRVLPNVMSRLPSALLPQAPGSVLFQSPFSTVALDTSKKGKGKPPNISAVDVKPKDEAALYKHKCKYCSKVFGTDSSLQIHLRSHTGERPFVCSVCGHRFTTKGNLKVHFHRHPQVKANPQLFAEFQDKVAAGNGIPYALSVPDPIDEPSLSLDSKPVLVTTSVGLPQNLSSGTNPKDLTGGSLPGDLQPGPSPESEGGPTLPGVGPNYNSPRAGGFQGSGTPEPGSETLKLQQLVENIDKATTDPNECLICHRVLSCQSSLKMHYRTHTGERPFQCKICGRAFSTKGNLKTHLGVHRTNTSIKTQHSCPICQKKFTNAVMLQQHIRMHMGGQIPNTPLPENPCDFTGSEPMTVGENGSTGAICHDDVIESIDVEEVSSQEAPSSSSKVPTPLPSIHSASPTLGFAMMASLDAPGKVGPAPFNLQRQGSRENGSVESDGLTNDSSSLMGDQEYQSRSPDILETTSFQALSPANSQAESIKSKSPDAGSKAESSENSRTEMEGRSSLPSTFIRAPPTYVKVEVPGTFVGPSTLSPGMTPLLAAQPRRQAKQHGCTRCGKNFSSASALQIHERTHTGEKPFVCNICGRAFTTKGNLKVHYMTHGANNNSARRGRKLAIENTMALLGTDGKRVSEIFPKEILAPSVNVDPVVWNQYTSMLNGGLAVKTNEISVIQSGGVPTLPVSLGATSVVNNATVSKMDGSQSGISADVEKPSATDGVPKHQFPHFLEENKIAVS
Technique: universal PBM
Molecule type: double-stranded DNA, one strand shown
Medium: in vitro
Tested at: 600 nM
Setting: 8-mer, flanks averaged, mean of replicates
Reading: higher = stronger binding
Sequence	E-score
AAATCTAG	0.0762
AAGCAAAC	0.047
TCGAACAA	0.101
GTAGCATA	0.166
AAGAGTCT	0.0142
CTTGGCGA	-0.318
CAAAGGGA	0.00494
AAGGATGC	-0.0814
AAGTGGCG	0.0166
CACTATGG	0.0267
GAGAAAGA	0.125
GATACCTA	0.184
CTACGTAA	0.0803
CCGCAGGC	-0.286
CCCCCATA	-0.051
ATACCCAG	-0.0479
ATCAACGA	0.0462
CGTGGTAG	-0.249
TCTACCCA	-0.136
CTATCTAA	0.114
ATGTCCCC	-0.0686
ATGCACGG	-0.204
AGTGCGCC	-0.33
GTCGAAAA	0.0289
CAAGCTGG	-0.153

Block 7
Target: Interferon regulatory factor 5, full length, phosphomimetic (IRF5, Homo sapiens, UniProt Q13568-2, residues 1-514, K96S/S451D/S453D/S456D/S462D)
Technique: protein-binding microarray
Molecule type: double-stranded DNA, one strand shown
Medium: in vitro
Tested at: 250 nM
Setting: 60-bp whole probe
Added: salmon DNA 0.4 mg/ml
Reference: random background probes
Reading: higher = stronger binding
All sequences stand within: GCCTAGCAC … GTCTTGATTCGCTTGACGCTGCTG
Sequence	log fluorescence [z-score]
TCAAATTTAGAAAATGGAACTGTGCTA	0.346
TTAGAACTGAGACTTGATTAGTGCTAG	-0.0185
GACGGACTCCTTTTCCTGACGTGCTAG	-0.174
TGTTGTCTTAGATTCCTTTGGTGCTAG	0.424
TTAGGTACCGACTTTCGGTTAGTGCTA	9.77
GACGATATCCGTATCGAGACGTGCTAG	1.42
TCACCCCTCCCCCTCAGACTGTGCTAG	-0.244
GACGGTATCGACTTTCGGGAAGTGCTA	6.84
TTAGATCTCAGTTTCGTTTAGTGCTAG	7.66
CTTGCTTCCCAATTCTCTTTGTGCTAG	0.449
TCATTTTAGCTTCTCAAACTGTGCTAG	0.257
GACGGACTGGGACTAGGGACGTGCTAG	-0.717
GACCGTTTCGACTTTCGGGACGTGCTA	8.11
GACGGTATCGACACCGGGGACGTGCTA	1.53
TCAAGCCTCAGGCCTCACACTGTGCTA	-0.693
CTTTAACTCATTCTCCACTTGTGCTAG	0.366
TTGGGTTTCCTTTTCCTTTAGTGCTAG	1.56
